Assay results pooled from the literature.
A part holds a random share of what one study measured.

Set 1
Target: Histone acetyltransferase KAT6A, both winged helices, GST fusion (KAT6A, Homo sapiens, UniProt Q92794, residues 1-181)
Technique: protein binding microarray
Form: double-stranded DNA, one strand shown
Medium: in vitro
Concentration: not given
Setting: 8-mer, flanks averaged, mean of 2 arrays, mostly near background
Relative to: not given
Direction: higher = stronger binding
Target sequence (chain): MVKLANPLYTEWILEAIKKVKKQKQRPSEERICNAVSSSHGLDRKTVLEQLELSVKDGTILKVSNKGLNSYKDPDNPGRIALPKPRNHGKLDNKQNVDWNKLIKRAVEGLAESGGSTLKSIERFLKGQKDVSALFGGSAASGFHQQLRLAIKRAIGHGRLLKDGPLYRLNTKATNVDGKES
Sequence | E-score
GCATCACC | -0.0728
CTTGCCTC | -0.0174
GGAAGTCA | 0.077
CTTTGCCA | -0.0385
AAGTATGT | -0.217
CCAGTAAC | -0.0203
CAGCGATC | 0.137
CTTTGGTA | -0.0465
CCCCAATA | -0.212
ATTCGACG | -0.00086
ATTTTTGC | -0.07
CCCTCTAC | -0.224
AATACGGC | 0.212
CGGACTTC | 0.238
AACTAGAA | -0.0492
AGAATGAG | -0.24
GATCCAAC | -0.0216
ACTGATAA | -0.0861
CAAGCTAG | -0.246
AGGAGTGC | -0.0821
GTCTGTCA | -0.0464
CCCCGACG | 0.258
GTATGTGA | 0.0612
CTACTTGA | -0.113
AGATTAGC | -0.0213

Set 2
Target: RING finger protein unkempt homolog, zinc fingers 1-6, GST-SBP tag (UNK, Homo sapiens, UniProt Q9C0B0, residues 30-357)
UniProt Q9C0B0, sequence (30-357, looked up): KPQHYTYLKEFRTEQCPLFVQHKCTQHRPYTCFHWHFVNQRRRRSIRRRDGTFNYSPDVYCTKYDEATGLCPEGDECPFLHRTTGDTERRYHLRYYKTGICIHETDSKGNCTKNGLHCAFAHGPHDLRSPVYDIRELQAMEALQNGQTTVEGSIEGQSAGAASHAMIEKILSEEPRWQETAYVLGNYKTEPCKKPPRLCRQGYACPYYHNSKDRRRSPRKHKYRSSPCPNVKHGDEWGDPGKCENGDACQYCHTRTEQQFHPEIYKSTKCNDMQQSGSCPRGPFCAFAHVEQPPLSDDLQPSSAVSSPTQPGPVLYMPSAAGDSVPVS
Technique: RNA Bind-n-Seq
Form: RNA
Medium: in vitro
Concentration: not given
Setting: RNA with constant flanks, human and mouse sites, ends assumed
Relative to: input RNA pool
Direction: higher = stronger binding
All sequences stand within: GGGAGUUCUACAGUCCGACGAUC … CAACAGAGGAUUGAGCAUCA
Sequence | bound/input enrichment [ratio]
UUCGCCUGCGCCAAGCUCGCCUGCACCCCCUCUCUGAUCCGAGCUGGAUCCAGAGUUGCAUACAGACCAAUUUCUGCAUCAGUGUUAUCUCGACCAGAGGCUAGUAGGACUGGAGAGGGC | 0.137
UCACUUACUCGAAGUGGGAAGAGAAACAAGAUGUUAAGAAGUUCUUUGCCAUGGAGGGAAAAUAGUUGGGAAGGAUAUAGUGGAAAUGUGAAGAUCAGAAAGCGUAAUGAUAUUCCAUGC | 0.384
GAAGCUAUGCGAAAUUAUUUAAAAGAACGAGGGGAUCAAACAGUGCUCAUUCUUCAUGCAAAAGUUGCACAGAAGUCUUACGGAAAUGAAAAACGAUUUUUUUGCCCUCCUCCUUGUGUG | 0.745
ACAGGAAAGAAGGCAUAUAAAUGUAAUAAAUGUGGAAAAGCCUUCAGCCAGAAGGAAAACUUCCUUUCUCAUCAGAAACAUCACACUGGAGAGAAACCUUAUGAAUGUGAAAAAGUUUCU | 0.112
CAUAUUGUAUGUAGAGAAAAAUUUUCAUUGACUCCCAUUGUGGAAUUCCCUAGCAAUUUAUUUAGACUUAAUUUUUUAAAUUCAAGCUUACUGUAUUAGUCAUUUUUAGCCCAUAAUUAA | 703
GCAGAAUACCCUGAUGAGUAUCAUGGCGAGUACCAGGAUGACUACCCCAGAGAUUACCAAUAUAGCGACCAAGGCAUUGAUUAUUAGAUCCACACAGAAGGAGCUCAGUAUUUAGUCCUU | 1.36
AACACAUUUAAUGAACAUCAUACACAAGACAGCAACAUACCUUUCUUUCUUGGUCAGACCAUUAGAUGGAGAGGAUUAUGUCUACUGAAAAUACUUUUGGCACGCCAUCACUUCAGCAAA | 0.258
CUCACAGGUAGAAUGAAUUGUGUCCUGGCCACAUAUGGAGGCAUUGCUUUGCUGGUCUUAUACUUCAAGUUAAGGCCUAAGAAAACUCCAGCUGUGAAAGCAACAUAAAUGGAUUUUGAA | 0.172
AUCAAGCAGCUGUUGCAAUCUGCCCACAAAGAAUCCAGCUUUGACAUUAUUUUGUCAGGUUUAGUCCCAGGAAGCACCACUCUGCACAGUGCUGAGAUUUUGGCUGAAAUCGCCCGGAUC | 0.179
UUUCUUCAGUUAUGGUAGGAGAAACAGAAGCAUCAUCUUCAUCUCAGGAUAAAGACAAAGAUAGCCGUUGUACCCGGCAGCACUGUACAGAAGAGGAUGAAGAAGAGGAUGAAGAGGAAG | 0.323
AAGAUGAAGCUGAUGGAAAAUCUGAAUACUUUAGACCUUCAAAACAAUGACCUUUUGCAGAUUCCCCCAGAGCUUGGGAACUGUGUGCAGCUACGGACACUACUGCUAGAUGGAAAUCCA | 0.261

Set 3
Target: Sal-like protein 4, full length isoform A (SALL4, Homo sapiens, UniProt Q9UJQ4, residues 1-1053)
UniProt Q9UJQ4, sequence (whole entry, looked up): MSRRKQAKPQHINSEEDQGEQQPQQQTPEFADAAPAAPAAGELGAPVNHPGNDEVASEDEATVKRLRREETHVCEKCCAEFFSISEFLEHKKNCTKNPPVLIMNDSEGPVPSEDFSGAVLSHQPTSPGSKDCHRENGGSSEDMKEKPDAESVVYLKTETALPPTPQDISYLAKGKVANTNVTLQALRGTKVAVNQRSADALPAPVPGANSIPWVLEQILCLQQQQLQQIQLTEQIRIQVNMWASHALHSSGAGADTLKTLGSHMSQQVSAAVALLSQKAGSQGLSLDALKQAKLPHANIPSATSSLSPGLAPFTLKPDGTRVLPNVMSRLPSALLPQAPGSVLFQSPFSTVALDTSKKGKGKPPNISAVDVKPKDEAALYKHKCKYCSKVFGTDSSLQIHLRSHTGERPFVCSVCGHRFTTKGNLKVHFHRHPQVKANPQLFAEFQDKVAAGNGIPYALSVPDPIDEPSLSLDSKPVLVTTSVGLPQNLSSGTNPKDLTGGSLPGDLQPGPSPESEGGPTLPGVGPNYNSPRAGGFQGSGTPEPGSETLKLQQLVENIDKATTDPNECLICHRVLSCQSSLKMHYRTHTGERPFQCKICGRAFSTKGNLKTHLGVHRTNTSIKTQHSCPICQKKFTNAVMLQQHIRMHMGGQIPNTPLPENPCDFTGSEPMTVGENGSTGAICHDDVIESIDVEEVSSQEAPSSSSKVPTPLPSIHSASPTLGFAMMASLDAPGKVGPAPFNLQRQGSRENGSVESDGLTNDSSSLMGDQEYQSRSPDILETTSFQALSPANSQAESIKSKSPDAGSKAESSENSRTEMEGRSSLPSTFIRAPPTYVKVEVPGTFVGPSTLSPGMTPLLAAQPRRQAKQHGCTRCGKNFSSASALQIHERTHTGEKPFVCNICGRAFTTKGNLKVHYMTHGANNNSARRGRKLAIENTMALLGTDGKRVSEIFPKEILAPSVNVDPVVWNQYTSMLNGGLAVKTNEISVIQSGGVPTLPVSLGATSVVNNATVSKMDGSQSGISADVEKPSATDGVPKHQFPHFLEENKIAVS
Technique: universal PBM
Form: double-stranded DNA, one strand shown
Medium: in vitro
Concentration: 600 nM
Setting: 8-mer, flanks averaged, mean of replicates
Direction: higher = stronger binding
Sequence | E-score
CAAATTCA | 0.125
ACGAATGA | 0.15
CCATCCCA | -0.0188
TACTAATA | 0.317
CAAGGAAA | 0.0113
ATAGACAA | 0.219
GACTCTTA | 0.154
GTGGAGGA | -0.0352
ATCCGGGA | -0.189
CAGTCAGC | -0.198
ACTCGCAG | -0.096
CTTGCGCC | -0.22
GCCCTCAA | -0.147
ATCTCTTG | -0.0283
GGAGGACC | -0.363
ATACGCCG | -0.102
GGATTCCA | 0.0416
CAAGGTCG | -0.133
ACGGGCAC | -0.236
ATCACCCG | -0.145
AGTTCACA | 0.127
CCAAATAC | -0.0287
AGAGAGGG | -0.256
GTCCTCGA | -0.16
CGTACGAA | 0.131

Set 4
Target: RNA binding protein fox-1 homolog 2, RRM domain, GST-SBP tag (RBFOX2, Homo sapiens, UniProt O43251-10, residues 100-194)
Technique: RNA Bind-n-Seq
Form: RNA
Medium: in vitro
Concentration: 365 nM
Setting: natural RNA segment, single round, ends assumed
Relative to: no-protein control
Direction: higher = stronger binding
All sequences stand within: GGGAGUUCUACAGUCCGACGAUC … UGGAAUUCUCGGGUGCCAA
Target sequence (chain): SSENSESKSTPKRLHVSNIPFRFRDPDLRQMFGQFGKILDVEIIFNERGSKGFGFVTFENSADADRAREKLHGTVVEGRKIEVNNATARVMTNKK
Sequence | RBNS enrichment (R)
GGAUUUCCCAGUGAAAUCAGAUUUGGAAAGAAAAGAGAGAUAGUUCUCCGGGAUGCAUAGAUUCAUGAUUUAUCUACUUUUGAAAUGUGGGCUUCUUCAUCUUUACGUUC | 0.512
GACAAGGACAAAAUCAGUUGUAUUUACAAAACUCUUAACUCGGUAUUUUUUUUUUAAACUGAAUCCUGUUUUGUAAAUAAUAUACAUUUAAUGUUGCUUAGCAUAAAAAA | 0.856
CCAACAAGAGAUCUCGAACCCUGUCUAGAAGGAAUGUAUUUGUUGCUAAAUUUCGUAGCACUGUUUACAGUUUUCCUCCAUGUUAUUUAUGAAUUUUAUAUUCCGUGAAU | 0.43
CCCCCAAAGUGCCUGACUUUAGUGAACCUAGAGGUGAUGUGAGUAAUCCGCGCUGUUCUUUGCAGCAGUGCUUCCAAGCUUUUUUUGGUGAGCCGAAUGGGCAUGGCUGC | 0.333
AAGCUAAGUGUCUGUGUGGCUGUGGAGCUCGAGGGUCUGUGAAUAAAGGCGGCGGCACUGGGCGUGGCUCUUGGUGGUCUGUCAGGCCUCUGCCCCUGCGGCACACAUGC | 0.781
CCACUCCCACAAUCUCAGGCCUGGUACCCAUCCUCUUUCCACUGUGAGCAGAGCCAGAAGGUAGGUCUGUUCAGAGUCUGUGCCCCUGGACCUGGGGAGUGGAUAUCAGA | 0.517
CCCUUCUCCCACUUGCCUACCCUCAAUGCCACACUGUUUUUGAAGUGGCCCAUAACUUGAAGGAAAAGUUUAAAGACAGUUCAAUUUAAUCAUCAGAAUGCAUUCUUUUU | 5.06
AUUCAGUCAAGUGUCUCAUAAAGAUCAGCUCCUCCCUCAGAAUACAAGUUAAUGCAUGUUACUCAGUCGCCCAGUAUGUGAAAGAAGAUAUGAGGGAGACAAAUGAGUUG | 23.7
AAAACAAAACCCUCAGCACUGUUACAAGAGGCCAUUUAAGUAUCUUGUGCUUCUUCACUUACCCAUUAGCCAGGUUCUCAUUAGGUUUUGCUUGGGCCUCCCUGGCACUG | 0.477
GGGCAGUGGUCCUUCCAAAUAGAAGUCCUGGGGCCUGGCCAGGCCAGGGUUUGGGCCUAAUGGUUUUUACUAAAUUACUCCCCUCCUGCUCUCCGAGAAAGGGGAGCCAG | 0.263
CAAUGCGAGGCUGGUGCAGAUGGAGGUCCUCAUGAAUUAGUGCCAUGCUUUGUGGGAGUCUGGGUCGGCACACUGUCAGUACAUCAGGCACAUGGGCCCACUAGGCUGGG | 0.723
AGGACCUCCCACAACCUGGUUCCCCACACAUCCAUAGUUCUGCCUCCCCAGCUUCUCCUCCCCAGUUGUAAAUAGUAUUUAUUAGCUUGCCGAGGCUUCCUGCUAGCAAC | 0.654

Set 5
Target: Ras GTPase-activating protein-binding protein 1, full length (G3BP1, Homo sapiens, UniProt Q13283)
UniProt Q13283, sequence (whole entry, looked up): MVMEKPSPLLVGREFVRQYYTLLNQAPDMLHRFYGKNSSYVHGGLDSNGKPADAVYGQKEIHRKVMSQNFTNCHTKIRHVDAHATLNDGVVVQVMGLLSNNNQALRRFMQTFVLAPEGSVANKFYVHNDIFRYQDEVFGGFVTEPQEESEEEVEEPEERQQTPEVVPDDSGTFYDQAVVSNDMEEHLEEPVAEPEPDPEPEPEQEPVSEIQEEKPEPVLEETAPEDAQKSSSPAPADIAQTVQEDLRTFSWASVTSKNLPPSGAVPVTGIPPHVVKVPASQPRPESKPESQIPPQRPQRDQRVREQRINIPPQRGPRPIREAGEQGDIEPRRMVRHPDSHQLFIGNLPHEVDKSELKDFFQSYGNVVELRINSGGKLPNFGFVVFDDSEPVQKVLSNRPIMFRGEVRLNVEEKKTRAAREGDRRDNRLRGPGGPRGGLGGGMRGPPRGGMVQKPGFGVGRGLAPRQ
Technique: RNA Bind-n-Seq
Form: RNA
Medium: in vitro
Concentration: 200 nM
Setting: whole 134-nt RNA, ends assumed
Together with: 150 mM KCl
Relative to: input library
Direction: higher = stronger binding
All sequences stand within: GGGAGUUCUACAGUCCGACGAUC … UGGAAUUCUCGGGUGUCAAGG
Sequence | log2 enrichment
CUCAAGUCCUGUGCUACACAUCGUAUGUACCGAAUCGGGCGGGCGGGGCGGGGAAAGUAUUAUGUUACGCCGUUCGGAUCUGCACUUCCA | 1.7
UGGGAGGUGGAAUUUGUUUAUUUUUUUAGCUCAUUUCCAGGGGUGGGAAUUUUUUUUUAAUAUGUGUCAUGAAUAAAGUUGUUUUUGAAA | -0.0823
UGGGAGGUGGAUUUUGUUUAUAUUUUUAGCUCAUUUCCAGGGGUGGGAAUUUUUUUUUAAUAUGUGUCAUGAAUAAAGUUGUUUUUGAAA | 0.161
CCCGAGCCGGAGAGGGAGCGCGAGCCGCGCCGGCCCCGGUCGGGCCUCCGAAACCAUGAACUUUCUGCUGUCUUGGGUGCAUUGGAGCCU | 0.0887
ACCAUGCAGGUGGGCAUCUUUGGGAAGUGGGGCAAGGGGGGGAUAGGGAGGGGGGUAACACUUUGGGAACAGGUGGUCCCAGGUCGUUUU | 1.24
CUGUGCUACACAUCGUAUGUACCGAAUCGGGGAAAAAGGGGAAAAAGGGGUUUUUUUGGGGAAAGUAUUAUGUUACGCCGUUCGGAUCUG | 0.132
CUCAAGUCCUGUGCUACACAUCGUAUGUACCGAAUCGGGAAGGAAGGGGAAGGAAAGUAUUAUGUUACGCCGUUCGGAUCUGCACUUCCA | -0.192
ACCAUGCAGGUGGGCAUCUUUGGGAAGUGCGGCAAGGGGGGGAUAGGGAGGGGGGUAACACUUUGGGAACAGGUGGUCCCAGGUCGUUUC | 1.69
UCCUGUGCUACACAUCGUAUGUACCGAAUCAAAUUUUUUUAAAUUUAAACCCCCCCAAAAAAGUAUUAUGUUACGCCGUUCGGAUCUGCA | 0.109
UCAAGUCCUGUGCUACACAUCGUAUGUACCGAAUCGGUUUGGUUUGGGGUUUGGGAAAGUAUUAUGUUACGCCGUUCGGAUCUGCACUUC | -0.949
GUCCUGUGCUACACAUCGUAUGUACCGAAUCGGGGAAAAAGGGAAAAAGGGGAAAAAGGAAAGUAUUAUGUUACGCCGUUCGGAUCUGCA | -0.36
ACCAUGCAGGUGGGCAUCUUUGGGAAGUGGGGCAAGGGGGGGAUAGGGAAAAGGGUAACACUUUGGGAACAGGUGGUCCCAGGUCGUUUC | 0.972
UCCUGUGCUACACAUCGUAUGUACCGAAUCGGGCCCCCCGGGGCCCCCCGGCCCCCCGGGAAAGUAUUAUGUUACGCCGUUCGGAUCUGC | -0.696
CACAGACAACACGCACCCCCACAGACACAGAGGGAAGGGGUUGGGAUGGGGACAGGGUGCACAGCAGGGCGGGGUAGGACCCCAGCCCCU | 2.11

Repeated from above (set 3):
Sequence | E-score
ACGGGCAC | -0.236
ATCTCTTG | -0.0283
GCCCTCAA | -0.147
ATAGACAA | 0.219
CAAATTCA | 0.125
ATACGCCG | -0.102
CCAAATAC | -0.0287
ACTCGCAG | -0.096
CGTACGAA | 0.131
AGTTCACA | 0.127
CAAGGTCG | -0.133
CAAGGAAA | 0.0113
CAGTCAGC | -0.198
